Published values pooled from the literature.
Lines come from different studies, so protocols differ. ± marks the error that the study gave.
polA D424A: polA fragment D424A (Escherichia coli)
B1: PPIP5K2 (Homo sapiens, UniProt O43314); chain MSEAPRFFVGPEDTEINPGNYRHFFHHADEDDEEEDDSPPERQIVVGICSMAKKSKSKPMKEILERISLFKYITVVVFEEEVILNEPVENWPLCDCLISFHSKGFPLDKAVAYAKLRNPFVINDLNMQYLIQDRREVYSILQAEGILLPRYAILNRDPNNPKECNLIEGEDHVEVNGEVFQKPFVEKPVSAEDHNVYIYYPTSAGGGSQRLFRKIGSRSSVYSPESNVRKTGSYIYEEFMPTDGTDVKVYTVGPDYAHAEARKSPALDGKVERDSEGKEVRYPVILNAREKLIAWKVCLAFKQTVCGFDLLRANGQSYVCDVNGFSFVKNSMKYYDDCAKILGNIVMRELAPQFHIPWSIPLEAED
B2: protein (Thermotoga neapolitana, UniProt B9K712); chain MKMLYDLAKKRKTVRRFKKEKPPLEDLIYSLKVANEAPSGMNAQPWRFLIVEDEKLKGQIRRVCERSEKTFYENVRGRLKEWLDEKRFTWRKPFLKEAPYLLLVFSEKSAPYSRESVWLAVGYLLLALEEKGLGSVPYTPPDFREVEKLVNTPSELRLEVILPVGYPDDPKPKYPRNEVIVRYNTF
UniProt Q94JM3, sequence (whole entry, unmodified, looked up): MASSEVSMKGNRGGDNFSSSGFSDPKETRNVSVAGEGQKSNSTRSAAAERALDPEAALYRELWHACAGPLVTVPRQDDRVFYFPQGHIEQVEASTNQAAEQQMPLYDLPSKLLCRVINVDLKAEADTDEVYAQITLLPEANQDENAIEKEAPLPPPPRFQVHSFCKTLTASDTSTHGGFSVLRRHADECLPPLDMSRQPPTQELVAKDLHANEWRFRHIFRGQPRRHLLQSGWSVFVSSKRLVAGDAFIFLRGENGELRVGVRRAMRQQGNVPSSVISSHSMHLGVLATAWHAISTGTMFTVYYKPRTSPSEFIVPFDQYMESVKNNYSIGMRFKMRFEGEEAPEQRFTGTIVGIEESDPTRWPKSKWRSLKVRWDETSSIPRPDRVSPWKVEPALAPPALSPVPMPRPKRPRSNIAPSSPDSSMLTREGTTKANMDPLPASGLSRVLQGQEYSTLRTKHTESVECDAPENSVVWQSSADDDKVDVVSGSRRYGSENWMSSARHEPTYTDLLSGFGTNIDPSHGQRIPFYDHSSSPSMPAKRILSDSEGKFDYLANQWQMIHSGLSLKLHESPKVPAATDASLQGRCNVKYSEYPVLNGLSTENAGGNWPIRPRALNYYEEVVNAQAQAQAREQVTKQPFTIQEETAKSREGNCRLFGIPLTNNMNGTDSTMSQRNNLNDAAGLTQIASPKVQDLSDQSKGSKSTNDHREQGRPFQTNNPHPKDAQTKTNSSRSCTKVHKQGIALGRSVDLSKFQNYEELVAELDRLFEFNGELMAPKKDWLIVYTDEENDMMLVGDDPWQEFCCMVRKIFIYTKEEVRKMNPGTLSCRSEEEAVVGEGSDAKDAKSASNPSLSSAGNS
UniProt Q9ZGI2, sequence (whole entry, looked up): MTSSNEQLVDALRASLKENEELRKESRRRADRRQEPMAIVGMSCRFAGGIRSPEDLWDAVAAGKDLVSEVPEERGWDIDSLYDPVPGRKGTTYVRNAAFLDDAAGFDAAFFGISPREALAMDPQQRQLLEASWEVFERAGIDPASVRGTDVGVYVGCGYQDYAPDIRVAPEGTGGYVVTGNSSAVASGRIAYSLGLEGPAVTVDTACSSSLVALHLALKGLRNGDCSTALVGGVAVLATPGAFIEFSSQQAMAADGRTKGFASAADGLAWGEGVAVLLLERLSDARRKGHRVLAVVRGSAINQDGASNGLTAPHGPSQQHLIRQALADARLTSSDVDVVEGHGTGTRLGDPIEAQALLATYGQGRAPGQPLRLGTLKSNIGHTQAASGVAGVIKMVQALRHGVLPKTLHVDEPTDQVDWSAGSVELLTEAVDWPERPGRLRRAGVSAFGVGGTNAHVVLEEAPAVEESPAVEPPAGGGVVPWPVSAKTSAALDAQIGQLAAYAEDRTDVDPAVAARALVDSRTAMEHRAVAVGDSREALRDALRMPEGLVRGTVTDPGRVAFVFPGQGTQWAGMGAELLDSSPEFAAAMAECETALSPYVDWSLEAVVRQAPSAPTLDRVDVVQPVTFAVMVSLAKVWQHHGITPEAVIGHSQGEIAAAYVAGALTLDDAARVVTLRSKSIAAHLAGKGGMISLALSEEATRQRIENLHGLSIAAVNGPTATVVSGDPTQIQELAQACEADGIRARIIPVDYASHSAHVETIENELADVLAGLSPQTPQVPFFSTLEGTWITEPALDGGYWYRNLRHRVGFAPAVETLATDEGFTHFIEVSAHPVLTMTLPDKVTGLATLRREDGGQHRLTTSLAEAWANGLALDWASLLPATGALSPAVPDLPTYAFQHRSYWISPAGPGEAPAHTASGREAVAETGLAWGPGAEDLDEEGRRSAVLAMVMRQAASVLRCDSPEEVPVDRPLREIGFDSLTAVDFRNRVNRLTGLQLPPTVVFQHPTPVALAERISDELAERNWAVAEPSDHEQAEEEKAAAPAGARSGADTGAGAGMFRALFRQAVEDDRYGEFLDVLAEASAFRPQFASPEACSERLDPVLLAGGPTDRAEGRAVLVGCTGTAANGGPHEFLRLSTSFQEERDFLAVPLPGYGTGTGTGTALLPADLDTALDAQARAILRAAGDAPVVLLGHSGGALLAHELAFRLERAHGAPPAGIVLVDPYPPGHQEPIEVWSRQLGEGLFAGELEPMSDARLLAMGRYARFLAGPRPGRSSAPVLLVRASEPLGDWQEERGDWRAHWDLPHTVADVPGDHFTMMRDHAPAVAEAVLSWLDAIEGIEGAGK

`CCCC[C@H](NC(=O)CNC(=O)CNC(=O)CN1CCN(CC(=O)O)CCN(CC(=O)O)CC1)C(=O)N[C@H]1CC(=O)NCCCC[C@@H](C(N)=O)NC(=O)[C@H](Cc2c[nH]c3ccccc23)NC(=O)[C@H](CCCNC(=N)N)NC(=O)[C@@H](Cc2ccccc2)NC(=O)[C@H](Cc2c[nH]cn2)NC1=O` [technetium-99m labelled] has a tissue uptake of 2.6 ± 0.28 %ID (C57 mice, intestines; intravenous, 0.037 MBq, 4 h).
For `B1 (PPIP5K2)`, the kcat was 0.13 ± 0.01 s⁻¹ (O=P(O)(O)O[C@H]1[C@@H](OP(=O)(O)O)[C@H](OP(=O)(O)O)[C@@H](OP(=O)(O)OP(=O)(O)O)[C@H](OP(=O)(O)O)[C@H]1OP(=O)(O)O; steady-state kinetics).
`B2 (protein)` gave a kcat/Km of 600000 ± 517000 M⁻¹ s⁻¹ (N[C@@H](Cc1ccc(O)c(Br)c1)C(=O)O; steady-state kinetics; pH 7.4, 60 °C).
For `CCTCTTCCCTCACCTCTTCTTGACCTCATTCGTACCCATTGACCTTCGCAACCACCTGCGAAGGTCAATGGGTACGAATGAGGT (hairpin DNA; hairpin, 5' overhang, dG-C8-FABP 22, 3' ddT)`, the Kd was 0.36 ± 0.07 nM (polA D424A; SPR; added: dTTP 100 µM).
For `enzyme (Streptomyces venezuelae, UniProt Q9ZGI2)`, the kcat was 1.7 ± 0.137 s⁻¹ (CC[C@@H](O)[C@H](C)/C=C/C(=O)[C@H](C)C[C@H](C)[C@H](O)[C@@H](C)C(=O)SCCNC(C)=O; steady-state kinetics).
For `N=C(N)NCCC[C@H](NC(=O)[C@H](CCCNC(=N)N)NC(=O)[C@H](CCCNC(=N)N)NC(=O)[C@H](CCCNC(=N)N)NC(=O)[C@H](CCCNC(=N)N)NC(=O)[C@H](CCCNC(=N)N)NC(=O)[C@H](CCCNC(=N)N)NC(=O)[C@H](CCCNC(=N)N)NC(=O)CN1CCN(CC(=O)O)CCN(CC(=O)O)CCN(CC(=O)O)CC1)C(=O)O`, cellular uptake read “increased” (NIH/3T3 cells; refers to: Gd; 0.10 mM, 4 h; relative to: reference compounds).
For `CCCC[C@H](NC(=O)CNC(=O)CNC(=O)CN1CCN(CC(=O)O)CCN(CC(=O)O)CCN(CC(=O)O)CC1)C(=O)N[C@H]1CC(=O)NCCCC[C@@H](C(N)=O)NC(=O)[C@H](Cc2c[nH]c3ccccc23)NC(=O)[C@H](CCCNC(=N)N)NC(=O)[C@@H](Cc2ccccc2)NC(=O)[C@H](Cc2c[nH]cn2)NC1=O` [lutetium-177 labelled], the tissue uptake was 1.66 ± 0.34 %ID (C57 mouse, female, intestines; intravenous, 0.037 MBq, 0.5 h).
`CC(C)C[C@H](NC(=O)[C@@H](CCCCNC(=O)CCCCCNC(=O)CN1CCN(CC(=O)O)CCN(CC(=O)O)CCN(CC(=O)O)CC1)NC(=O)[C@H](Cc1ccc(O)cc1)NC(=O)[C@H](CO)NC(=O)[C@H](Cc1c[nH]c2ccccc12)NC(=O)[C@H](Cc1cnc[nH]1)NC(=O)[C@@H]1CCC(=O)N1)C(=O)N[C@@H](CCCNC(=N)N)C(=O)N1CCC[C@H]1C(=O)NCC(N)=O` [indium-111 labelled] gave a tissue uptake of 0.11 ± 0.03 %ID/g (female athymic nude mouse, lung; intravenous, 0.037 MBq, 24 h).
For `AGTCTTTTTGGTCTCTGGTCGGTCGACAATCCGTGTG (dsDNA; 5-C6-amino-dT labels)`, the K1/2 was 181 nM (ARF2 1-859 D797S/D798S (Arabidopsis thaliana, UniProt Q94JM3); smFRET titration; double-stranded DNA, one strand shown).
For `CN1C(=O)[C@@H](Cc2ccc(O)cc2)NC(=O)CNC(=O)[C@H](Cc2ccc3ccccc3c2)NC(=O)[C@H](CCCNC(=N)N)NC(=O)[C@H]1CCCNC(=O)c1ccc(CNC(=O)CN2CCN(CC(=O)O)CCN(CC(=O)O)CCN(CC(=O)O)CC2)cc1` [gallium-68 labelled], “absorbed dose coefficient” read 0.0128 mGy/MBq (extrapolated to adult male; C57BL/6 mice, small intestine).
With `CCTCTTCCCTCACCTCTTCTTGACCTCATTCGTACCCATTGACCTTCGCAACCACCTGCGAAGGTCAATGGGTACGAATGAGGT (hairpin DNA; hairpin, 5' overhang, 3' ddT)` the Kd was 3.6 ± 0.95 nM (polA D424A; SPR; added: dTTP 100 µM).
For `GACAUGGUCCGGUAGUUCAGUUGGUUAGAAUGCCUGCCUGUCACGCAGGAGGUCGCGGGUUCGAGUCCCGUCCGGACCG (tRNA (Bacillus subtilis); 5'-GMPS, tRNA fold)`, the relative affinity was 6.5 fold (PRORP1 77-572 Y140F (Arabidopsis thaliana, UniProt Q66GI4); fluorescence anisotropy; folded RNA; NaCl 1 M, extrapolated; relative to: wild-type target).

Repeated from above:
For `AGTCTTTTTGGTCTCTGGTCGGTCGACAATCCGTGTG (dsDNA; 5-C6-amino-dT labels)`, the K1/2 was 181 nM (ARF2 1-859 D797S/D798S (Arabidopsis thaliana, UniProt Q94JM3); smFRET titration; double-stranded DNA, one strand shown).
For `CN1C(=O)[C@@H](Cc2ccc(O)cc2)NC(=O)CNC(=O)[C@H](Cc2ccc3ccccc3c2)NC(=O)[C@H](CCCNC(=N)N)NC(=O)[C@H]1CCCNC(=O)c1ccc(CNC(=O)CN2CCN(CC(=O)O)CCN(CC(=O)O)CCN(CC(=O)O)CC2)cc1` [gallium-68 labelled], “absorbed dose coefficient” read 0.0128 mGy/MBq (extrapolated to adult male; C57BL/6 mice, small intestine).
